# Results pooled from the literature.
# Compare with care: the assays were run in different laboratories. “And” joins repeats or separate records; there may be more than shown.
# Target: Serine/threonine-protein kinase 4 (STK4, Homo sapiens, UniProt Q13043)
SMILES,test,system,conditions,how to read,measurement,value
Cc1cnc2nc1Nc1cccc(c1)COC/C=C/COCc1cc(ccc1OCCN1CCOCC1)N2,,,"concentration not given, gene name MST1",,percent of control,100%
CNC1C[S+]2CC[S+]3CC[S+](C1)[Ru-4]321([N]=C=S)[n]2c3ccc(OC)cc3c3c4c(c5cc(F)c[n+]1c5c32)C(=O)NC4=O (centres unmarked),KinomeScan,,0.1 µM,relative to: untreated,remaining binding,100%
COc1ccc(NC(=O)Nc2ccc3c(c2)C(=O)N(C(C)CO)CC(C)C(CN(C)Cc2ccc4c(c2)OCO4)O3)cc1 (centres unmarked),"kinase activity, KinaseProfiler",,"0.03 µM, species human",relative to: control,remaining activity,87%
COCC12C(=O)NC3C4(C(OC)CC1O)C1CC5(O)C(OC)C(O)C(OC(C)=O)(C1C5OC(=O)c1ccccc1)C3(O)C(OC)C24 (centres unmarked),"kinase activity, inhibitor, ProQinase kinase profiling",,25 µM,relative to: control,remaining activity,93% and 97%
CN1CC[C@@H](COc2cnc(C#N)cc2-c2ccn3nc(NC(=O)C4CC4)cc3c2)C1,"enzyme activity, inhibitor",,1 µM,,inhibition,11%
O=C(Cc1ccc(OCc2ccccc2)cc1)NC1(C(=O)O)CCN(C(=O)c2ccc(-c3cccc(Cl)c3)cc2)CC1,"enzyme activity, inhibitor",,10 µM,,activity vs control,107%
C=CC(=O)N1Cc2nc(-c3cc(-c4cc(Cl)cnc4Cl)c(F)cc3F)n(-c3ccncn3)c2C1,"cell-free assay, inhibitor",,1 µM,,inhibition,9.3%
NC(=O)C[C@H]1CCc2sc3ncnc(O[C@H]4CC[C@H](N5CCOCC5)CC4)c3c21,"enzyme activity, inhibitor",,10 µM,,inhibition,8%
CN1CCN(Cc2ccc(-c3ccc(CO[C@H]4CCC[C@@H]4NC(=O)c4cc(-c5cnn(C)c5)cnc4N)cc3)cc2)CC1,"enzyme activity, inhibitor",,0.1 µM,,inhibition,-4%
COc1ccc(C(=O)/C=C/c2ccccc2-c2c[nH]c3ccc(C#N)cc23)c(O)c1,"enzyme activity, inhibitor",,20 µM,,inhibition,0%
Cc1ccc(C(=O)Nc2ccc(CN3CCN(C)CC3)c(C(F)(F)F)c2)cc1C#Cc1cnc2cccnn12,"target engagement, NanoBRET",human cells,,,Hill slope,1.64
C=CC(=O)Nc1cccc(-c2cnc3[nH]cc(C(=O)NC(C)(C)C)c3n2)c1,kinase activity,,0.1 µM,,inhibition,79% and 80%
COc1c(Cl)cccc1Nc1c(-c2ccncc2C#C[C@@]2(C)CCCN2C(=O)/C=C/CN(C)C)[nH]c2c1C(=O)NCC2,"binding, competition with immobilised ligand",,3 µM,,remaining binding,89%
CCn1cc(C(=O)O)c(=O)c2c(N)c(F)c(NC3CCCCC3)cc21,kinase activity,,"0.1 µM, together with: ATP at Km",,inhibition,10.1%
Cc1cccc(O[C@H]2CCC[C@@H](C(C)CNCc3ccncc3)C2)c1 (relative stereo),"kinase activity, kinome panel screening",,10 µM,,inhibition,-7%
COc1cc(Nc2nccc(-c3cnn4nc(OC)ccc34)n2)cc(C(F)(F)F)c1,"binding, competition with immobilised ligand",,1 µM,,remaining binding,85%
CNC(=O)C[C@H](Cc1ccc(C#N)cc1)NC(=O)c1cc(-c2ccc(CN[C@H](C)c3ccc(C)cc3)o2)ccc1Cl,"enzyme activity, inhibitor",,1 µM,,activity vs control,93%
